Measured values pooled from the literature.
Numbered parts are unrelated; each lists some results of a single study.

Block 1
Target: Histone acetyltransferase KAT6A, winged helix 2, GST fusion (KAT6A, Homo sapiens, UniProt Q92794, residues 85-181)
Method: protein binding microarray
Molecule type: double-stranded DNA, one strand shown
Sample: in vitro
Tested at: not given
Notes: 8-mer, flanks averaged, mean of 2 arrays, mostly near background
Baseline: not given
Direction: higher = stronger binding
Construct (chain): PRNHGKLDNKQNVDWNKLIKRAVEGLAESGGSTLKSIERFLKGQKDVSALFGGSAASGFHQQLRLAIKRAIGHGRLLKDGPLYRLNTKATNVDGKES
Strand | E-score
ACAGGGCA | 0.0281
GGATGACC | -0.0654
CAGGTGCA | -0.00419
CGCCCCCG | 0.249
AAGAGGCC | -0.0661

Block 2
Target: Ras GTPase-activating protein-binding protein 1, full length (G3BP1, Homo sapiens, UniProt Q13283)
Sequence of UniProt Q13283 (whole entry, looked up): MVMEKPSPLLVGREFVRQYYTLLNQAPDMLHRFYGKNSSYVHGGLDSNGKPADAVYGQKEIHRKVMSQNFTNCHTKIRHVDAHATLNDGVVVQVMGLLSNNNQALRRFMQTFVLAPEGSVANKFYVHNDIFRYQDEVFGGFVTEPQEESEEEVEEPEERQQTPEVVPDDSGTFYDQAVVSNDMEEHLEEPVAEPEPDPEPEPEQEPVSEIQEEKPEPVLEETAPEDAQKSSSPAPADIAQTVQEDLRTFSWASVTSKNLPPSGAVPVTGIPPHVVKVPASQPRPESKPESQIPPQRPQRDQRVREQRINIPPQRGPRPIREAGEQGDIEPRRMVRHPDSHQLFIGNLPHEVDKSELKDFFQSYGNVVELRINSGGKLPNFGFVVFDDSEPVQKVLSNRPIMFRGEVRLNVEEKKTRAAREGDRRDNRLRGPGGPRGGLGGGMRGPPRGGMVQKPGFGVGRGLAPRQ
Method: RNA Bind-n-Seq
Molecule type: RNA
Sample: in vitro
Tested at: 200 nM
Notes: whole 134-nt RNA, ends assumed
Together with: 150 mM KCl
Baseline: input library
Direction: higher = stronger binding
Strand | log2 enrichment
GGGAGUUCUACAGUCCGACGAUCCAAGUCCUGUGCUACACAUCGUAUGUACCGAAUCGGGAGGGUGGGAAAAAAAGGGAAAGUAUUAUGUUACGCCGUUCGGAUCUGCACUUCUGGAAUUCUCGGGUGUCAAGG | 0.307
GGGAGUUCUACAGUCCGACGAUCAAGUCCUGUGCUACACAUCGUAUGUACCGAAUCGGGAGGGUUUGGGAAAAAAAGGGAAAGUAUUAUGUUACGCCGUUCGGAUCUGCACUUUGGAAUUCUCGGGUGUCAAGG | -0.0595
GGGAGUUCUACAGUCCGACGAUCCAAGUCCUGUGCUACACAUCGUAUGUACCGAAUCGGAAAAAGGAAAAAAAGGAGGAAAGUAUUAUGUUACGCCGUUCGGAUCUGCACUUCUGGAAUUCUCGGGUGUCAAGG | -0.918
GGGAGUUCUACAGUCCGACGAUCUGGGAGGUGGAUUUUGUUUAUUUUUUUAGCUCAUUUCCAGGAGUGGGAAUUUUUUUUUAAUAUGUGUCAUGAAUAAAGUUGUUUUUGAAAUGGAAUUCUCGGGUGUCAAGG | 0.529
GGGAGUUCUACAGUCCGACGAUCCACAGACAACACGCACCCACACAGACACAGAGGGAAGGGGUUGGGAUGGGGACAGGGUGCACAGCAGGGCGGGGUAGGACCCCAUCCCCUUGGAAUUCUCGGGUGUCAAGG | 2.04
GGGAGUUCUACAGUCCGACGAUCACCAUGCAGGUGGGCAUCUUUGGGAAGUGGAAAAAGGGGGGGAUAGGGAGGGGGGUAACACUUUGGGAACAGGUGGUCCCAGGUCGUUUCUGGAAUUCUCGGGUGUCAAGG | 0.895

Block 3
Target: Centromere-binding protein 1, full length, N-terminal tag (CBF1, Saccharomyces cerevisiae, UniProt P17106, residues 1-351)
Sequence of UniProt P17106 (whole entry, looked up): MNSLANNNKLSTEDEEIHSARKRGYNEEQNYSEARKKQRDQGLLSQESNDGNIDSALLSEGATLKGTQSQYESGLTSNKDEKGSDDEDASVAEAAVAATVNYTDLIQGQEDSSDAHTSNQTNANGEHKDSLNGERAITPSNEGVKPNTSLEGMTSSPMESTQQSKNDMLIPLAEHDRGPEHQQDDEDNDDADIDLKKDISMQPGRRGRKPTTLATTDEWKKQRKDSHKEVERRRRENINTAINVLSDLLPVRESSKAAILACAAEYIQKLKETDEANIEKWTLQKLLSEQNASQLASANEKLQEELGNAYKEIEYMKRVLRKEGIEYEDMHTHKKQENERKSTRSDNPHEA
Method: protein-binding microarray
Molecule type: double-stranded DNA, one strand shown
Sample: in vitro
Tested at: 0.8 µM
Notes: whole 60-bp probe, no competitor
Direction: higher = stronger binding
Strand | fluorescence intensity [a.u.]
GAATTATACGACTAATAGGTGATGCTCATATTCTAGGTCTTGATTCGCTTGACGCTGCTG | 515
GAACAAATTAGTGAAAACGTGGATATCAACTTGTAGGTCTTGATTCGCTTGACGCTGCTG | 655
CTAATTAAATAACCTCAGTCACCTTGTGCAAGATTCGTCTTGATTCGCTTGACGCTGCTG | 496
CTAGTAACAAAATAGCACGTCAGGGTTAAGGCGTTCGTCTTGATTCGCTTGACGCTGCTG | 563
GAAGTGTTTCTTTCTGATGCTACATAGAAGAACTAGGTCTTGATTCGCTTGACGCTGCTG | 585
GAACGCCTGCTACCATGTGAGAGTTGGCGTTAGTAGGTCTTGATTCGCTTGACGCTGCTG | 582
CTACCCTTCTCACCCCCCGTGTTACGCAAAGAATTCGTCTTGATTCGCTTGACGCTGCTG | 609
GAACTGATGCTTTCTCTGCTGATGCCAACACCATAGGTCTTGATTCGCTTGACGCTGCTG | 742

Single results of other studies
Substance | target | assay | system | conditions | how to read | quantity | value
PhoQ, residues 284 288 289 292 302 303 ASSHFY | PhoP, residues 12 14 15 18 19 AQCLL (Escherichia coli, UniProt P23836) | Sort-seq, item: YFP reporter | E. coli | PhoQ-PhoP variant library, together with: 10 µM Mg2+ | baseline: high Mg2+ state, higher = stronger signaling | fold induction | 1.9

A few entries again (single results of other studies):
Substance | target | assay | system | conditions | how to read | quantity | value
PhoQ, residues 284 288 289 292 302 303 ASSHFY | PhoP, residues 12 14 15 18 19 AQCLL (Escherichia coli, UniProt P23836) | Sort-seq, item: YFP reporter | E. coli | PhoQ-PhoP variant library, together with: 10 µM Mg2+ | baseline: high Mg2+ state, higher = stronger signaling | fold induction | 1.9
